Experimental data of several laboratories.
Numbered parts are unrelated; each lists some results of a single study. Changes are numbered by the printed parent chain.

Series 1 — method: protein-binding microarray; form: double-stranded DNA, one strand shown; sample: in vitro; concentration: 940 nM top; notes: 60-bp whole probe; added: salmon DNA 0.4 mg/ml; baseline: random background probes; reading: higher = stronger binding; constant ends, left off below: GCCTAGCAC … GTCTTGATTCGCTTGACGCTGCTG
Target: Interferon regulatory factor 5, full length, phosphomimetic (IRF5, Homo sapiens, UniProt Q13568-2, residues 1-514, S451D/S453D/S456D/S462D)
Sequence | fitted relative affinity
GACGGACTGAGTATCGGGACGTGCTAG | 1.03 z-score
TTAGGACTGGACACTGGGTTAGTGCTA | -0.261 z-score
TCATGTGTTACTTTCTAACTGTGCTAG | 0.884 z-score
TTAGGTTTCGGTTTCGGTCAGTGCTAG | 16.3 z-score
TTAGATTTCAGTCTCGATTAGTGCTAG | 4.22 z-score
TCAGCTCTAGGTTCTCTGACTGTGCTA | -0.117 z-score
TGTGGCTTAGCTGTCACCTCGTGCTAG | -0.36 z-score

Series 2 — target: CCNB2, cyclin fold, Cln2 fusion (human); method: yeast growth competition, sequencing; sample: yeast; notes: weak parent motif; baseline: not given; reading: higher = stronger binding
Parent: GMNC docking peptide (human); KNAKRNLSSEFAN
Change | normalised enrichment score
KNAKRNLSDEFAN [S9D] | 0.167
KNAKRQLSSEFAN [N6Q] | 0.385
KNVKRNLSSEFAN [A3V] | 1.59
KNAKRNLYSEFAN [S8Y] | 1.56
KNAKRMLSSEFAN [N6M] | 0.579
KNAKRNLSSESAN [F11S] | 0.526
KFAKRNLSSEFAN [N2F] | 0.694
KIAKRNLSSEFAN [N2I] | 0.904
KNAKRNLSMEFAN [S9M] | 0.543
KNAGRNLSSEFAN [K4G] | 0.196
KNAKGNLSSEFAN [R5G] | 0.699
KNAKRNLSEEFAN [S9E] | -0.172
KNAKRNLSSEFTN [A12T] | 0.363
KNAKRNLSLEFAN [S9L] | 0.199
KNAKRNLTSEFAN [S8T] | 0.165

Series 3 — method: protein binding microarray; form: double-stranded DNA, one strand shown; sample: in vitro; concentration: not given; baseline: not given; reading: higher = stronger binding
Target: Histone acetyltransferase KAT6A, winged helix 2, GST fusion (KAT6A, Homo sapiens, UniProt Q92794, residues 85-181)
Notes: 8-mer, flanks averaged, mean of 2 arrays, mostly near background
Residues (chain): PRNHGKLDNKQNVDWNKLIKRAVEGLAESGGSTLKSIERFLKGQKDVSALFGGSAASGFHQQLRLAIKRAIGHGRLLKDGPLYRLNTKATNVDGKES
Sequence | E-score
CCGGTCTC | 0.113
GCGAACGA | -0.0214
GGTCTCAC | -0.0914
CGCTAAGA | 0.0926
AAAACTTA | 0.0491
CATCGCAC | 0.127
GCTCTTGA | -0.00723
ATTTTTTG | 0.0627
CACGTCGA | -0.125
AAGCGTCA | -0.0164
CGCACCAG | 0.271
AATTCTGC | 0.14
CGCGCACA | 0.134
TCACGTAA | -0.221
CCGTCGCA | 0.155
TGTATACA | 0.0781

Further values, each from its own experiment
Substance | target | assay | system | conditions | scale | measurement | value
PhoQ, residues 284 288 289 292 302 303 TTSMTC | PhoP, residues 12 14 15 18 19 NHFIF (Escherichia coli, UniProt P23836) | Sort-seq, item: YFP reporter | E. coli | PhoQ-PhoP variant library, added: 10 µM Mg2+ | baseline: high Mg2+ state, higher = stronger signaling | fold induction | 16.2

A few entries again (series 2):
Change | normalised enrichment score
KNAKGNLSSEFAN [R5G] | 0.699
KNAKRNLSEEFAN [S9E] | -0.172
KNAKRNLSSEFTN [A12T] | 0.363
KNAKRNLSLEFAN [S9L] | 0.199
